Experimental data of several laboratories.
Each numbered part is a random draw from the data of one study; scales do not carry over between parts. Changes are numbered by the printed parent chain.

Series 1 — technique: RNA Bind-n-Seq; form: RNA; sample: in vitro; concentration: 200 nM; setting: whole 134-nt RNA, ends assumed; added: 150 mM LiCl; baseline: input library; direction: higher = stronger binding; all molecules: 7-deaza-guanosine replaces G
Target: Ras GTPase-activating protein-binding protein 1, full length (G3BP1, Homo sapiens, UniProt Q13283)
Chain of UniProt Q13283 (whole entry, looked up): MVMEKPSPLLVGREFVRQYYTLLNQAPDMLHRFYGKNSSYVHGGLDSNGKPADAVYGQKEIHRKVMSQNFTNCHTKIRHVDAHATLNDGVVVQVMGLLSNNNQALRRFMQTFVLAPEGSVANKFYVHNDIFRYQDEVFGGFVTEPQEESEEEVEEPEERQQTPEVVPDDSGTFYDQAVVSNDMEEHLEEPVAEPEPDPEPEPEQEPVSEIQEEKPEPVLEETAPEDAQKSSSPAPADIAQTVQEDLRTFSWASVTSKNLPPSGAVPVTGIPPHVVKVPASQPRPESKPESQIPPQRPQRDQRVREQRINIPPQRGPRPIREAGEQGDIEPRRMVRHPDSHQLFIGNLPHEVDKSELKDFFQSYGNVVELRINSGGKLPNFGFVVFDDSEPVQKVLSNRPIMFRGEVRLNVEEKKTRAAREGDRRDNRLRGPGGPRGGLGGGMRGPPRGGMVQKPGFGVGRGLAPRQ
Shared flanks, not repeated: GGGAGUUCUACAGUCCGACGAUC … UGGAAUUCUCGGGUGUCAAGG
Oligonucleotide | log2 enrichment
AAGUCCUGUGCUACACAUCGUAUGUACCGAAUCGGGUUUGGGUGGGAAAAAAAGGGAAAGUAUUAUGUUACGCCGUUCGGAUCUGCACUU | 0.129
GCAGGAAGUAAAAACAAAUGGAAAUGCUUCGGAUUGUGGCAGGGGUGGGGGUUGCUAAGGAAAGGGUGGGAUGGGAGUGGGUAAAGAGUU | 0.332
AAGUCCUGUGCUACACAUCGUAUGUACCGAAUCGGGGUUUGGGGUUUGGUUUGGGGAAAGUAUUAUGUUACGCCGUUCGGAUCUGCACUU | -0.517
UCCUGUGCUACACAUCGUAUGUACCGAAUCGGUUUUUUGGGGUUUUUUGGGUUUUUUGGGAAAGUAUUAUGUUACGCCGUUCGGAUCUGC | 0.503
GCAGGAAGUAAAAACAAAUGGAAAUGCUUCGGAUAGUGGCAGGGGUGGGGGUUGCUAAGGAAAGGGUGCGAUGGGAGUGGGUAAAGAGUU | -0.164
AAGUCCUGUGCUACACAUCGUAUGUACCGAAUCGGGUUUUUUUGGGUUUGGGAGGGAAAGUAUUAUGUUACGCCGUUCGGAUCUGCACUU | -0.372
UGUGCUACACAUCGUAUGUACCGAAUCGGGGAAAAAAAGGGGAAAAAGGGGAAAAAAAGGGGAAAGUAUUAUGUUACGCCGUUCGGAUCU | 0.716
CUCAAGUCCUGUGCUACACAUCGUAUGUACCGAAUCGGGUUGGGUUGGGUUGGAAAGUAUUAUGUUACGCCGUUCGGAUCUGCACUUCCA | 0.227
UGGCCCUGGUGGCAUGCGGGGAGAAAGAGGUGGCCUCAUGGAUCGUGGUGGUCCCGGUGGAAUGUUCAGAGGUGGCCGUGGUGGAGACAG | 0.405
UCAAGUCCUGUGCUACACAUCGUAUGUACCGAAUCGGUGGUUUGGUUUUUUUGGAAAGUAUUAUGUUACGCCGUUCGGAUCUGCACUUCC | -0.0281
AAGUCCUGUGCUACACAUCGUAUGUACCGAAUCGGGCCCCGGGGCCCCGGGCCCCGGAAAGUAUUAUGUUACGCCGUUCGGAUCUGCACU | -0.567

Series 2 — target: FOSL1, bZIP domain (human); technique: DHFR protein complementation; sample: yeast; baseline: wild-type JUN-FOS pair; direction: higher = stronger binding
Setting: single substitutions, most at no-binding floor
Starting sequence: JUN, bZIP domain (human); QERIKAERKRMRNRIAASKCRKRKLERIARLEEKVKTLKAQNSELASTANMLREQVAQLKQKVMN; partner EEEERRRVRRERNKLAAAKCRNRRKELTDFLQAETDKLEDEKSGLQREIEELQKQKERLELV
Variant | binding fitness
L52I | -0.88 natural log
I28E | -0.641 natural log
E54S | -0.609 natural log
E44C | -0.747 natural log
K39C | -1.01 natural log
L38F | -1.5 natural log
E33A | -0.494 natural log
M51F | -0.505 natural log
Q58V | -0.365 natural log
K36A | -0.278 natural log
S43R | -0.237 natural log
Q55G | -1.28 natural log
Q55E | -0.379 natural log
A29L | -0.701 natural log
K39S | -0.807 natural log
M51Q | -0.303 natural log
A29D | -0.524 natural log
L31I | -0.961 natural log

Series 3 — technique: DHFR PCA, deep sequencing; sample: yeast; added: (+)-ABA 1.4 µM; baseline: wild-type fitted maximum; direction: higher = stronger binding
Target: ABI1, truncated, D143A, DHFR fusion (Arabidopsis thaliana)
Setting: methotrexate growth selection, single substitutions
Starting sequence: PYL1, truncated, DHFR fusion (Arabidopsis thaliana); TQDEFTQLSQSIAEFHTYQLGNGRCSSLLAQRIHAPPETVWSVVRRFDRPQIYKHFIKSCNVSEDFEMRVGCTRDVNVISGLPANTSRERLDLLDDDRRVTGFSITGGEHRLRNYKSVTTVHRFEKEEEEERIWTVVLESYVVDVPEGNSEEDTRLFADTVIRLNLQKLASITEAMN
Variant | relative binding score
R113F | 15%
A35E | 7.55%
E152H | 32.8%
V43F | 2.92%
I133T | 70.5%
L169K | -13.3%
R49W | 0.412%
D3H | 42.4%
N77D | 49.6%
V137Q | -1.93%
V136A | 8.37%
E89A | 0.98%
I79H | 48.5%
E67S | 41.9%
E152Y | 25.4%
Y115L | -6.07%
Q167Y | -5.52%
T6E | 78.8%
L20D | 56.3%

Series 4 — technique: RNA Bind-n-Seq; form: RNA; sample: in vitro; concentration: 365 nM; baseline: no-protein control; direction: higher = stronger binding
Target: RNA binding protein fox-1 homolog 2, RRM domain, GST-SBP tag (RBFOX2, Homo sapiens, UniProt O43251-10, residues 100-194)
Setting: natural RNA segment, single round, ends assumed
Shared flanks, not repeated: GGGAGUUCUACAGUCCGACGAUC … UGGAAUUCUCGGGUGCCAA
Construct (chain): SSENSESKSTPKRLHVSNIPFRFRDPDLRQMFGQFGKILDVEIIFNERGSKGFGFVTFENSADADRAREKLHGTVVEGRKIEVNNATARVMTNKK
Oligonucleotide | RBNS enrichment (R)
GUUCAUUUGUCAUAUAGGCACUGGGUUGUUUCUAUAUCAUCAUCGUCUAUAAACUAGCUUUAGGAUAGUGCCAGACAAACAUAUGAUAUCAUGGUGUAAAAAACACACAC | 0.487
CAGACAGGAAAGGGAAGGCCCCACAGACAAGGUAGCCCUGGCCAGAGGCUUGUUUUGUCUUUUGGUUUUUAUGAGGUGGGAUAUCCCUAUGCUGCCUAGGCUGACCUUGA | 0.451
AUGAUAAAACUCGGCCCCUGGUGAAUGACUCCCUCCCGGGUGCUCACUACCUGGGACUCUCUGCGAUGUACAUAAUAUUUAAUGCGGUUCCGGCAGCAGCCUUCUCUGGA | 1.11
UCCCCAAGGAAGCCAUAAUGUGCAGAUGAACUGACCGAAGGAAAAGCUUGAGACAGCUUCCUGCGGGGGAGCCAGGUACAGAAGAGGCAGCUUGGGCUGACCCAGCAUCU | 0.686
AUUGUGCCUUUUAAUUAGAGGUCUAGAAAGUUCACCUGAACCCACACCCCCUUCUUCCUGAGAAUUCUGGUGCCUCUAAAGCCCCUCCUUGCCACUCAGGGUUUUAGUGG | 0.308
GUUCUUUUUCCACGCAAUGUAAGAACAUGAUAUACUGUACGUUGGAAAGCAUUUACCUUAUUUAUAUACCUGAAUGUUCCUACUACACAAAUAAACAUAUAUUAAAUUCU | 1.09
AAGAACUGGAAUGCGUACGUCUUUUGUGCCACCUUGUACAAAGCCGGCUGCCCAGCCCCAGCCUCACCACCGCAUCCCACCUCCUGCCCUCCAUACCUCUAGUUGUGUCU | 0.375
AGCUAGCACUGUCUGGAAUGGCCUGUGUUGUAAGUGUCUUGGCCUCUAGGGAAGGUUUGUGCUGGCCUCAGGAGACUGUCUCAUGAGCAGGGAAGUGUUGUGGCCGGCUG | 1.9
UUACCGGUGAAAGUCACAGGUACCUUUAUCUAUGAUGAAUGUAAUGUGUUAGAUGGUGACCGAAGUGUUCUCCACUACACCUGUCUGAAGAGAUCUAAGUCUGAUAUUUA | 0.324
AAAAGUAAACAAAAUUAAGUUAUUAUUCCACUGUUAGGAAUGGAAAUAAACUUGUGAAGUCUGUUUAUUUUGAAGUAUUGGUGAACUAGGCUUGCUAAUUGAUAACUGCA | 3.1
GGCUCAAGGCUUCCCCAGCAAAGAUUAGGGAAAGAGACUUGACCCCAGGACUGUACUACGACUCUUAAGAGAACACUGCACAGCACUCAAAGUCCCCCACUGGACUGCUU | 0.503
CUCUGCUUCUCUCUGUCAGCGUCCUGCUGCUCUAGAAGACUGUCCGUGGAUGAGUUUAGUGUACAGACUUGUAAACAGCUGCCCCCUCUCUGCUCAGUCUAGUUCCCAGA | 0.366

Excerpt of the above (series 2):
Variant | binding fitness
L31I | -0.961 natural log
M51F | -0.505 natural log
L38F | -1.5 natural log
